Measurements of several laboratories.
Protocols differ between the studies behind these lines. Values joined by “and” are separate records of one study, mostly repeats; a detail may differ.
Target: Vascular endothelial growth factor receptor 3 (FLT4, Homo sapiens, UniProt P35916)

SMILES	test	system	setting	how to read	measurement	result
CC(C)=CC1OC(C)(C)C2C=C3C(=O)C(Cl)=CC(O)C3C3C(O)C4OC4C(=O)C132 (stereo not shown)	cell-free assay, competition with immobilised ligand	–	10 µM	–	remaining binding	88%
CNC(=O)C1CCN(c2cc(C)c(F)cc2NC(=O)c2ccc(-c3cc(O)ccc3C)c(C)c2)CC1	binding, competition with immobilised ligand	–	1 µM	–	remaining binding	100%
N[C@H]1CC[C@H](Nc2nccc(-c3cccnc3Oc3ccc(NC(=O)NC4CC4)c4ccccc34)n2)CC1	kinobead competition pulldown	HEK293/HCT116 lysate mixture	10 µM, 1 h, 4 °C	lower = stronger competition	log2 LFQ intensity	22.5 and 22.1 and 21.8 and 22.3
O=C=[N][Ru-4]123([n]4c5ccc(O)cc5c5c6c(c7cc(F)c[n+]1c7c54)C(=O)NC6=O)[S+]1CC[S+]2CC[S+]3CC1 (stereo not shown)	enzyme activity	–	100 nM, human enzyme, with: 10 µM ATP	reference: untreated	remaining activity	55%
COCC12C(=O)NC3C4(C(OC)CC1O)C1CC5(O)C(OC)C(O)C(OC(C)=O)(C1C5OC(=O)c1ccccc1)C3(O)C(OC)C24 (stereo not shown)	kinase activity, inhibitor, ProQinase kinase profiling	–	25 µM	reference: control	remaining activity	109% and 96%
CN1CCN(Cc2ccc(-c3ccc(CO[C@H]4CCC[C@@H]4NC(=O)c4cc(-c5cnn(C)c5)cnc4N)cc3)cc2)CC1	enzyme activity, inhibitor	–	0.1 µM	–	inhibition	4%
Nc1ncc2c(n1)-c1c([nH]c3ccc(C4=CCOCC4)cc13)CCC2	binding, competition with immobilised ligand	–	1 µM	–	remaining binding	74%
Cc1cccc(O[C@H]2CCC[C@@H](C(C)CNCc3ccncc3)C2)c1 (relative stereo)	cell-free assay	–	10 µM	–	inhibition	-3%
C=CC(=O)N1CCCC(n2c(=O)c3ncccc3n(Cc3ccc(Oc4ccccc4)cc3)c2=O)C1 (stereo not shown)	cell-free assay, competition with immobilised ligand	–	1 µM	–	remaining binding	80%
C=CC(=O)N1Cc2nc(-c3cc(-c4cc(Cl)cnc4Cl)c(F)cc3F)n(-c3ccncn3)c2C1	cell-free assay	–	1 µM	–	inhibition	0.9%
COc1cc(Nc2nc(C)cc(-c3cnn4nc(OC)ccc34)n2)cc(C(F)(F)F)c1	inhibitor	–	1 µM	reference: control	remaining activity	89%
NC(=O)C[C@H]1CCc2sc3ncnc(O[C@H]4CC[C@H](N5CCOCC5)CC4)c3c21	enzyme activity, inhibitor	–	10 µM	–	inhibition	7%
O=C(Cc1ccc(OCc2ccccc2)cc1)NC1(C(=O)O)CCN(C(=O)c2ccc(-c3cccc(Cl)c3)cc2)CC1	enzyme activity, inhibitor	–	10 µM	–	activity vs control	56%
COc1c(Cl)cccc1Nc1c(-c2ccncc2C#C[C@@]2(C)CCCN2C(=O)/C=C/CN(C)C)[nH]c2c1C(=O)NCC2	cell-free assay, competition with immobilised ligand	–	3 µM	–	remaining binding	92%
Cc1cnc2nc1Nc1cccc(c1)COC/C=C/COCc1cc(ccc1OCCN1CCOCC1)N2	binding	–	0.1 µM	–	remaining binding	11%
C=CC(=O)Nc1cccc(-c2cnc3[nH]cc(C(=O)NC(C)(C)C)c3n2)c1	kinase activity	–	0.1 µM	–	inhibition	47% and 44%

Some of these lines once more:
SMILES	test	system	setting	how to read	measurement	result
COCC12C(=O)NC3C4(C(OC)CC1O)C1CC5(O)C(OC)C(O)C(OC(C)=O)(C1C5OC(=O)c1ccccc1)C3(O)C(OC)C24 (stereo not shown)	kinase activity, inhibitor, ProQinase kinase profiling	–	25 µM	reference: control	remaining activity	109% and 96%
